Results of several laboratories.
Numbered parts are unrelated; each lists some results of a single study.

Study 1
Target: Histone acetyltransferase KAT6A, winged helix 2, GST fusion (KAT6A, Homo sapiens, UniProt Q92794, residues 85-181)
Technique: protein binding microarray
Molecule type: double-stranded DNA, one strand shown
Matrix: in vitro
Concentration: not given
Notes: 8-mer, flanks averaged, mean of 2 arrays, mostly near background
Relative to: not given
Direction: higher = stronger binding
Construct (chain): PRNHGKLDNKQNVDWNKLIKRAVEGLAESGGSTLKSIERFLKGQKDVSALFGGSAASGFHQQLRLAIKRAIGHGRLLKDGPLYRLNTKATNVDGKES
| Strand | E-score |
| --- | --- |
| AGGCTCAT | 0.092 |
| AAGGATCA | -0.0803 |
| GGGAACGA | -0.0227 |
| CCGACGCG | 0.291 |
| CGCCACCG | 0.0248 |
| AGTAGAAC | -0.137 |
| AAAAAAGA | 0.125 |
| GCCCAAAA | 0.11 |
| TAATCGAA | 0.0419 |
| CGATATTA | 0.203 |
| AAGTACCG | 0.0636 |
| CATGGACG | 0.0249 |
| GAGTAATC | 0.0839 |
| TAATCCTA | -0.0909 |
| ATCCTCTA | -0.111 |
| CTGCAGAA | 0.0506 |
| CTTTTAGC | -0.0619 |
| AACGTCAA | -0.0565 |
| GTTGGTAA | -0.0963 |
| GTTGGTTA | -0.02 |
| CCGGATCA | 0.193 |
| ATCCCTTC | -0.0746 |
| GAAGGTGA | 0.0356 |
| AAGAGACA | -0.0633 |
| ATAAGTAT | -0.056 |

Study 2
Target: Transcription factor SOX-2, HMG box (Sox2, Mus musculus, UniProt P48432, residues 41-119)
Sequence of UniProt P48432 (41-119, looked up): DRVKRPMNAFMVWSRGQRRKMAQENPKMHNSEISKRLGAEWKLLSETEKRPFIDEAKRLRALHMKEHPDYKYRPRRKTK
Technique: Spec-seq
Molecule type: double-stranded DNA, one strand shown
Matrix: in vitro
Concentration: not given
Notes: whole probe, mean of replicates
Relative to: not given
Direction: lower = stronger binding
Constant ends, left off below: GAGTCGTCTCGTCAGCAC … CCGTAGAGCACTCAGGTC
| Strand | relative binding energy |
| --- | --- |
| CCGGGTT | 1.54 ln ratio |
| CATTACT | -0.268 ln ratio |
| AATCGTT | -1.62 ln ratio |
| TCAAGTT | 0.789 ln ratio |
| CATGGTG | 0.164 ln ratio |
| CATAAAC | -0.321 ln ratio |
| CATCGAA | 0.458 ln ratio |
| GTGCGTT | 1.45 ln ratio |
| TATAGTT | -1.14 ln ratio |
| CATTCGT | -0.215 ln ratio |
| ATAGGTT | 0.227 ln ratio |
| GAAGGTT | 1.23 ln ratio |
| GAGTGTT | 0.526 ln ratio |
| CCCAGTT | 0.651 ln ratio |
| ACGGGTT | 0.871 ln ratio |
| AGAAGTT | 0.205 ln ratio |
| CATCGTA | 0.567 ln ratio |
| CATAAAT | -0.261 ln ratio |
| GTGAGTT | 1.17 ln ratio |
| TAACGTT | 0.767 ln ratio |
| GCATGTT | 0.53 ln ratio |
| CAACGTT | 0.751 ln ratio |
| CATCCCC | 1.36 ln ratio |
| CATCCTA | 0.671 ln ratio |
| CATAGTT | -0.898 ln ratio |

Study 3
Target: Centromere-binding protein 1, full length, N-terminal tag (CBF1, Saccharomyces cerevisiae, UniProt P17106, residues 1-351)
Sequence of UniProt P17106 (whole entry, looked up): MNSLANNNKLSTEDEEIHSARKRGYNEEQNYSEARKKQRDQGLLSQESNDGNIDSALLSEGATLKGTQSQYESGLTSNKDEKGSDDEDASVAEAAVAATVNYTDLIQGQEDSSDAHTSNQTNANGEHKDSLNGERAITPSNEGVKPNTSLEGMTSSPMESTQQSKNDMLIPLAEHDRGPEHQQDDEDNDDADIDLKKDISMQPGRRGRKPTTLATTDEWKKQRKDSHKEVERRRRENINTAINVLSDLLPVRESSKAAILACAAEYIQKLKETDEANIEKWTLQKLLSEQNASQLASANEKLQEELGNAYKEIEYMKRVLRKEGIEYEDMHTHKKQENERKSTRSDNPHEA
Technique: protein-binding microarray
Molecule type: double-stranded DNA, one strand shown
Matrix: in vitro
Concentration: 0.8 µM
Notes: whole 60-bp probe, no competitor
Direction: higher = stronger binding
Constant ends, left off below: … GTCTTGATTCGCTTGACGCTGCTG
| Strand | fluorescence intensity |
| --- | --- |
| CTATGGTATTCTGACAACGTGTTGTCATACCTGTTC | 675 a.u. |
| CTACACTAATAACACCACACCATTAATTTTAATTTC | 530 a.u. |
| CTAAGAATCTAAGCCAACACGCACAATAGACTCTTC | 494 a.u. |
| CTAACCCGTCTCCGTCACGTGAAGTAAAAATTTTTC | 14200 a.u. |
| CTAGATTGCGTTCGTGATTTGAAAAGCAGCGTTTTC | 667 a.u. |
| CCTAACTACTATAAGAACATCAGATAGCTTCGTACA | 510 a.u. |
| CTAGCTTTAAGGGTCAAGGTGGTGGAAAACTTGTTC | 542 a.u. |
| CTATTGAGATTCGAGTTTTATATGATGGCAACATTC | 540 a.u. |
| GAATTTTTGCTTAAATAGGTGACACAAAATGGATAG | 608 a.u. |
| CTAAATTCTACTTATCACGTCCCATTGTTGCTATTC | 573 a.u. |
| CTATTCCTTTTACCTCGTGAAAGGACTATATATTTC | 581 a.u. |
| GAACTGATCACTCCGCACGTGCGCGCTGAGAGGTAG | 8990 a.u. |
| CTAAACTTGAAAAGCTGATGGGTGTCAAGCACGTTC | 514 a.u. |
| CTATCTACTAAGAGTAACGTGGCTGAGAAGAGATTC | 732 a.u. |
| CCTAACTACTATATTCGTGTGCCATAGCTTCGTACA | 513 a.u. |
| CCTAACTACTATACGCACGTTTCATAGCTTCGTACA | 590 a.u. |
| GAACCCACTAGTAATCACCTGCATCTATATAAGTAG | 937 a.u. |
| CTAGGGCGGCAAAATCATGAGAAGCGCACATGTTTC | 619 a.u. |
| CTAAGGAAAATAAAATTCGTGATAAATACATGCTTC | 561 a.u. |

Study 4
Target: Interferon regulatory factor 5, full length, phosphomimetic (IRF5, Homo sapiens, UniProt Q13568-2, residues 1-514, K96S/S451D/S453D/S456D/S462D)
Technique: protein-binding microarray
Molecule type: double-stranded DNA, one strand shown
Matrix: in vitro
Concentration: 250 nM
Notes: 60-bp whole probe
With: salmon DNA 0.4 mg/ml
Relative to: random background probes
Direction: higher = stronger binding
Constant ends, left off below: GCCTAGCAC … GTCTTGATTCGCTTGACGCTGCTG
| Strand | log fluorescence |
| --- | --- |
| TTTGATATCGGGACTGGATTAGTGCTA | 2.09 z-score |
| CATTTTCTAAATTCCCTAGTGTGCTAG | 1.24 z-score |
| TTAGAACTGAGTCTTGATTAGTGCTAG | 0.0443 z-score |
| GACGGTTCCCTTTTCCTTACGTGCTAG | 0.724 z-score |
| GTCGGTATCGGTATCGGGACGTGCTAG | 7.6 z-score |
| GACGAACCGGGGTTTCGAGACGTGCTA | 1.19 z-score |
| TTAGGACTGGGAGTGGGTTAGTGCTAG | -0.355 z-score |
| TTAGGTATCCTTTTCCTATAGTGCTAG | 0.636 z-score |
| TTAGGTATCGACTATCGGCTAGTGCTA | 5.66 z-score |
| GACGGACTGGGGACTTGGGACGTGCTA | -0.58 z-score |
| GACGGTATCCTTCTCCTTACGTGCTAG | 0.305 z-score |
| GACGGTCTCGGTTTCGGCACGTGCTAG | 3.52 z-score |
| AGGAGAGATTAAGTAACTTAGTGCTAG | -0.0889 z-score |
| GACGATATCAGTATCGAGAGGTGCTAG | 3.49 z-score |
| TTAAATTCCAGTTTCGATTAGTGCTAG | 10.2 z-score |
| AACGATATCAGACTGGAGACGTGCTAG | 0.651 z-score |
| TTAGGTTTCGGGTATGGGTTAGTGCTA | 8.89 z-score |
| GACGGTTTCGTCTTTCGGGACGTGCTA | 6.34 z-score |
| TCATTTTTTTTTTTTGTACTGTGCTAG | 1.19 z-score |

Some of these lines once more (study 4):
| Strand | log fluorescence |
| --- | --- |
| TTAGGACTGGGAGTGGGTTAGTGCTAG | -0.355 z-score |
| GACGAACCGGGGTTTCGAGACGTGCTA | 1.19 z-score |
| GACGATATCAGTATCGAGAGGTGCTAG | 3.49 z-score |
| GACGGTTTCGTCTTTCGGGACGTGCTA | 6.34 z-score |
| TTTGATATCGGGACTGGATTAGTGCTA | 2.09 z-score |
| TCATTTTTTTTTTTTGTACTGTGCTAG | 1.19 z-score |
| AGGAGAGATTAAGTAACTTAGTGCTAG | -0.0889 z-score |
| TTAGAACTGAGTCTTGATTAGTGCTAG | 0.0443 z-score |
| GACGGTCTCGGTTTCGGCACGTGCTAG | 3.52 z-score |
| TTAGGTATCGACTATCGGCTAGTGCTA | 5.66 z-score |
| TTAAATTCCAGTTTCGATTAGTGCTAG | 10.2 z-score |
| TTAGGTTTCGGGTATGGGTTAGTGCTA | 8.89 z-score |
